Assay results of several laboratories.
± gives the spread as reported.
Sequence of UniProt P11388 (whole entry, looked up): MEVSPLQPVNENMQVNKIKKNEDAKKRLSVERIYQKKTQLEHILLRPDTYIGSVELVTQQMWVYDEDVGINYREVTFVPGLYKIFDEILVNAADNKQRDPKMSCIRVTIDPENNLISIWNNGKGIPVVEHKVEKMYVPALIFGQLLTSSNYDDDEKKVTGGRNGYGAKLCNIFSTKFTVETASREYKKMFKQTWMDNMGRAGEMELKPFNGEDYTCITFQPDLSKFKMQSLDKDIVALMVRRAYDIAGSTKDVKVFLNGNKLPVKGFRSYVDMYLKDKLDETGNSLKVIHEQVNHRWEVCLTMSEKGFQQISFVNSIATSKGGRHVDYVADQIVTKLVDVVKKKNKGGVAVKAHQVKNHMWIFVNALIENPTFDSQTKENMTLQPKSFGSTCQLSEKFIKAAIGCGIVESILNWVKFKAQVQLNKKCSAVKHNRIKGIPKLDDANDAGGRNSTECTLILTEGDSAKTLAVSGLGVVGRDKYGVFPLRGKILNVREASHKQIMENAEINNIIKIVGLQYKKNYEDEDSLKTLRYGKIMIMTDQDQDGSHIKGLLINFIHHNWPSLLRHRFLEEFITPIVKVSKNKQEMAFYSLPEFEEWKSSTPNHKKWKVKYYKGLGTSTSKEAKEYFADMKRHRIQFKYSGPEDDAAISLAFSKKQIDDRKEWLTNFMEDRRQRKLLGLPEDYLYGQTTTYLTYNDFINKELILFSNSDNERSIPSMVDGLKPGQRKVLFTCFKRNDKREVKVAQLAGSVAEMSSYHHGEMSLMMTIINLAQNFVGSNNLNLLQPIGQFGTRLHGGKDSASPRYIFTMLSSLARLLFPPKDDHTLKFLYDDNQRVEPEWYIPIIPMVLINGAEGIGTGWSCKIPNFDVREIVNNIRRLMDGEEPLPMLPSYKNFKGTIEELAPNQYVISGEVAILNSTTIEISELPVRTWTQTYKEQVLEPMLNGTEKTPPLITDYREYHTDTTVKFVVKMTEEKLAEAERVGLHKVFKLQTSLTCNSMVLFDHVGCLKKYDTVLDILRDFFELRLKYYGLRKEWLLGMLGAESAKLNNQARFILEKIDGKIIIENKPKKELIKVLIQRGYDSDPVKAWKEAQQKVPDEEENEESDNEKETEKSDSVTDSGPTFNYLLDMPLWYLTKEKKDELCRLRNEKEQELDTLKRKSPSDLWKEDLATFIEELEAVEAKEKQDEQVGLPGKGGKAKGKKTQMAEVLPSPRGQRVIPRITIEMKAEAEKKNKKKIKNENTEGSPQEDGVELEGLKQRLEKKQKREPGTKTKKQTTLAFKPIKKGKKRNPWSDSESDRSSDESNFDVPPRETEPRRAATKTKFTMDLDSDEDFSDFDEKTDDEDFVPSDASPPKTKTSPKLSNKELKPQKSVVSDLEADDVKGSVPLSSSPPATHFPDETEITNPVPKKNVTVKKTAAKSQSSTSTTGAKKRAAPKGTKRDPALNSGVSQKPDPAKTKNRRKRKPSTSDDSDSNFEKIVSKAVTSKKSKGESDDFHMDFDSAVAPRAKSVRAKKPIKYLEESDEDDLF

| Molecule | tested on | test | test system | setting | how to read | quantity | result |
| --- | --- | --- | --- | --- | --- | --- | --- |
| Cc1c(S(=O)(=O)N2CCc3c(cnn3C)C2)cc(C(=O)NCc2cccnc2N2CCCC2)n1C | SARS-CoV-2 | viral replication | Huh7.5 cells, WA1/2020 |  |  | EC50 | 4.6 µM |
| CCCc1nn(C)c2c(=O)[nH]c(-c3cc(S(=O)(=O)N4CCN(C)CC4)ccc3OCC)nc12 |  |  | humans, plasma | 100 mg, phase I DDI study, together with: vericiguat |  | Cmax | 398 ng/mL |
| Fc1ccccc1Cc1nc(-c2nc(C(F)(F)F)n[nH]2)cn2ccnc12 |  |  | healthy human subjects, both sexes | oral, 10 mg, fed |  | subjects with skin TEAEs | 0% |
| [Mg+2] | uncharacterized protein (Bacteroides thetaiotaomicron, UniProt Q8A4G9) | phosphatase activity, activator, phosphate release |  | 5 mM, EDTA-treated enzyme, together with: substrate 9 mM | baseline: activity with this ion | relative specific activity | 1 |
| CC[C@H](C)[C@H](NC(=O)[C@H](CCCCN)NC(=O)[C@H](CCC(=O)O)NC(=O)[C@H](CCCCN)NC(=O)[C@H](CO)NC(=O)[C@H](CCCCN)NC(=O)[C@H](CCCNC(=N)N)NC(=O)[C@H](Cc1ccccc1)NC(=O)[C@H](Cc1ccccc1)NC(=O)[C@H](CC(=O)O)NC(=O)CNC(=O)[C@H](CC(C)C)NC(=O)[C@@H](N)CC(C)C)C(=O)NCC(=O)N[C@@H](CCCCN)C(=O)N[C@@H](CCC(=O)O)C(=O)N[C@@H](Cc1ccccc1)C(=O)N[C@@H](CCCCN)C(=O)N[C@@H](CCCNC(=N)N)C(=O)N[C@H](C(=O)N[C@H](C(=O)N[C@@H](CCC(N)=O)C(=O)N[C@@H](CCCNC(=N)N)C(=O)N[C@H](C(=O)N[C@@H](CCCCN)C(=O)N[C@@H](CC(=O)O)C(=O)N[C@@H](Cc1ccccc1)C(=O)N[C@@H](CC(C)C)C(=O)N[C@@H](CCCNC(=N)N)C(=O)N[C@@H](CC(N)=O)C(=O)N[C@@H](CC(C)C)C(=O)N[C@H](C(=O)N1CCC[C@H]1C(=O)N[C@@H](CCCNC(=N)N)C(=O)N[C@H](C(=O)N[C@@H](CCC(=O)O)C(=O)N[C@@H](CO)C(=O)O)[C@@H](C)O)C(C)C)[C@@H](C)CC)C(C)C)[C@@H](C)CC | Clostridium perfringens |  | ATCC 13124 |  |  | MIC | 22.4 µM |
| CC(C)C[C@H](NC(=O)OCc1ccccc1)C(=O)N[C@H](C=O)C[C@@H]1CCCNC1=O | SARS-CoV-2 | viral replication, RT-qPCR viral load | Caco-2 | 72 h |  | EC50 | 0.02 ± 0.02 µM |
| OC[C@H]1O[C@@H](O[C@@H]2[C@@H](O)[C@H](O[C@H]3[C@H](O)[C@@H](CO)OC(O)[C@@H]3O)O[C@H](CO)[C@H]2O)[C@H](O)[C@@H](O)[C@@H]1O (stereo partly shown) | Bacteroides thetaiotaomicron | binding, ITC |  | pH 7.0, 25 °C, distal domain |  | ΔG | -24.8 kcal/mol |
| COC(=O)Nc1c(N)nc(-c2nn(Cc3ccccc3F)c3ncc(F)cc23)nc1N |  |  | healthy white men | dose not given, day 15, 360 h, LS mean difference, together with: sildenafil 100 mg | baseline: placebo | seated DBP maximum decrease | -1.01 mmHg |
| OC[C@H]1O[C@@H](O[C@@H]2[C@@H](O)[C@H](O[C@@H]3[C@@H](O)[C@H](O[C@H]4[C@H](O)[C@@H](CO)OC(O)[C@@H]4O)O[C@H](CO)[C@H]3O)O[C@H](CO)[C@H]2O)[C@H](O)[C@@H](O)[C@@H]1O (stereo partly shown) | Bacteroides thetaiotaomicron | binding, ITC |  | pH 7.0, 25 °C, distal domain |  | ΔH | -20.3 kcal/mol |
| Cc1cn([C@H]2C[C@H](N=[N+]=[N-])[C@@H](CO)O2)c(=O)[nH]c1=O | HIV-1 | viral replication, reverse transcriptase | human PBMC, 92HT599 (CXCR4-tropic) |  |  | EC50 | 0.005 ± 0.002 µM |
| [H]/N=C(/N)N/C(=N/[H])NCCc1ccccc1 | primary human hepatocytes | measured: ATP |  | 4 h |  | CC50 | > 100 µM |
| COc1ccccc1CNC(=O)c1cc(S(=O)(=O)N2CCn3nccc3C2)c(C)n1C | SARS-CoV-2 | viral replication | Huh7.5 cells, WA1/2020 |  |  | EC50 | 9 µM |
| COC(=O)Nc1c(N)nc(-c2nn(Cc3ccccc3F)c3ncc(F)cc23)nc1N |  |  | healthy male humans, plasma | oral, 5 mg single dose, fasting, together with: magnesium/aluminium hydroxide 10 mL single dose | baseline: with over without antacid | Cmax ratio | 0.543 |
| heparin | feline infectious peritonitis virus | plaque | fcwf-4, type I strain KU-2 | concentration not given |  | infection efficiency | decreased |
| CC1COc2ccccc2N1C(=O)C(Cl)Cl (stereo not shown) | glutathione S-transferase |  | female rhesus monkey liver cytosol | 5 µM, pH 7.4, together with: GSH |  | scaled intrinsic clearance | 110 mL/min/g liver |
| COc1ccc([C@@H](C)NC(=O)c2cc(N)ccc2C)c2ccccc12 | SARS-CoV-2 | viral replication | Vero E6 |  |  | EC50 | 36 µM |
| OC[C@H]1O[C@@H](O[C@@H]2[C@@H](O)[C@H](O[C@@H]3[C@@H](O)[C@H](O[C@@H]4[C@@H](O)[C@H](O[C@@H]5[C@@H](O)[C@H](O[C@H]6[C@H](O)[C@@H](CO)OC(O)[C@@H]6O)O[C@H](CO)[C@H]5O)O[C@H](CO)[C@H]4O)O[C@H](CO)[C@H]3O)O[C@H](CO)[C@H]2O)[C@H](O)[C@@H](O)[C@@H]1O (stereo partly shown) | Bacteroides thetaiotaomicron | binding, ITC |  | pH 7.0, 25 °C, distal domain |  | -TΔS | 23.3 kcal/mol |
| Cc1cnc2nc(C)c(C(=O)NCc3ccccc3)n2c1 | Mycobacterium tuberculosis | growth (>90% inhibition) | H37Rv, glycerol-alanine-salts medium |  |  | MIC | 1.3 µM |
| Cc1c(S(=O)(=O)N2CCC(C)CC2)cc(C(=O)NCc2cccnc2N2CCCC2)n1C | SARS-CoV-2 | viral replication | Huh7.5 cells, WA1/2020 |  |  | EC50 | 5.53 µM |
| CC(C)C[C@H](NC(=O)OCc1ccccc1)C(=O)N[C@@H](CC1CCNC1=O)C(O)S(=O)(=O)O (stereo partly shown) | porcine epidemic diarrhea virus | viral replication, RT-qPCR, measured: PEDV N gene | Vero-E6 |  |  | EC50 | 1.09 ± 0.25 µM |
| CO/N=C(\C(=O)N[C@@H]1C(=O)N2C(C(=O)O)=C(COC(C)=O)CS[C@H]12)c1csc(N)n1 | Pseudomonas aeruginosa |  | clinical isolate RKI-No_493/15 |  |  | MIC | > 16 µg/mL |
| OC[C@H]1O[C@@H](O[C@@H]2[C@@H](O)[C@H](O[C@@H]3[C@@H](O)[C@H](O[C@@H]4[C@@H](O)[C@H](O[C@H]5[C@H](O)[C@@H](CO)OC(O)[C@@H]5O)O[C@H](CO)[C@H]4O)O[C@H](CO)[C@H]3O)O[C@H](CO)[C@H]2O)[C@H](O)[C@@H](O)[C@@H]1O (stereo partly shown) | Bacteroides thetaiotaomicron | binding, ITC |  | pH 7.0, 25 °C, distal domain |  | ΔH | -19.4 kcal/mol |
| COc1ccccc1CNC(=O)c1cc(S(=O)(=O)N2CCC(C)CC2)c(C)n1C | SARS-CoV-2 | viral replication | Huh7.5, WA1/2020 |  |  | EC50 | > 100 µM |
| COc1cc([C@@H]2c3cc4c(cc3[C@@H](O[C@@H]3O[C@@H]5CO[C@@H](C)O[C@H]5[C@H](O)[C@H]3O)[C@H]3COC(=O)[C@H]23)OCO4)cc(OC)c1O | DNA topoisomerase 2-alpha (TOP2A, Homo sapiens, UniProt P11388) | DNA cleavage |  | 200 µM |  | mean linear DNA | 35.6% |
| CNCC(NC(=O)c1ccc(-c2ccc3c(c2)OCO3)[nH]1)c1nc(CO)cs1 (stereo not shown) | human immunodeficiency virus 1 | viral replication | PBMC | 168 h |  | IC50 | 2600 ± 700 nM |
| Cc1c(S(=O)(=O)N2CCc3[nH]ncc3C2)cc(C(=O)NCc2cccnc2N2CCCC2)n1C | SARS-CoV-2 | viral replication | Huh7.5 cells, WA1/2020 |  |  | EC50 | 0.086 µM |
| C[C@H]1O[C@@H](O[C@H]2[C@@H](O)C[C@H](O[C@H]3[C@@H](O)C[C@H](O[C@H]4CC[C@@]5(C)[C@H](CC[C@@H]6[C@@H]5CC[C@]5(C)[C@@H](C7=CC(=O)OC7)CC[C@]65O)C4)O[C@@H]3C)O[C@@H]2C)C[C@H](O)[C@@H]1O | human adenovirus C5 |  | A549 | concentration not given, 72 h | baseline: DMSO control | minimum progeny production | 35% |
| N#CCC1CCN(c2nc(Nc3ccc(N4CCC(O)CC4)cc3)c3c(=O)[nH]ncc3n2)CC1 |  | Olink multiplex, measured: CDCP1 | human, serum | 40 mg, day 15, unit not given | baseline: placebo | serum level change | -1.27 |

Excerpt of the above:
| Molecule | tested on | test | test system | setting | how to read | quantity | result |
| --- | --- | --- | --- | --- | --- | --- | --- |
| OC[C@H]1O[C@@H](O[C@@H]2[C@@H](O)[C@H](O[C@@H]3[C@@H](O)[C@H](O[C@@H]4[C@@H](O)[C@H](O[C@@H]5[C@@H](O)[C@H](O[C@H]6[C@H](O)[C@@H](CO)OC(O)[C@@H]6O)O[C@H](CO)[C@H]5O)O[C@H](CO)[C@H]4O)O[C@H](CO)[C@H]3O)O[C@H](CO)[C@H]2O)[C@H](O)[C@@H](O)[C@@H]1O (stereo partly shown) | Bacteroides thetaiotaomicron | binding, ITC |  | pH 7.0, 25 °C, distal domain |  | -TΔS | 23.3 kcal/mol |
